Experimental data collected from several papers.
Each line is one published result; not all experiments were run side by side. Several values in a cell are separate wells, animals, samples, runs or records. ± marks the error that the study gave.
OPRL1: Nociceptin receptor (OPRL1, Homo sapiens, UniProt P41146)
Dual specificity protein phosphatase 10: Dual specificity protein phosphatase 10 (Homo sapiens, UniProt Q9Y6W6)
Secreted effector protein C403A/D356A: Secreted effector protein (Yersinia pestis, UniProt O68720, C403A/D356A)
Scn2a: Sodium channel protein type 2 subunit alpha (Scn2a, Rattus norvegicus, UniProt P04775)

The chains behind the UniProt entries cited, without tags or fusion partners. A line that says so, or that is headed by a name, gives the form on record, which may keep a tag or linker. Residues count along the entry.
UniProt P41146, whole entry: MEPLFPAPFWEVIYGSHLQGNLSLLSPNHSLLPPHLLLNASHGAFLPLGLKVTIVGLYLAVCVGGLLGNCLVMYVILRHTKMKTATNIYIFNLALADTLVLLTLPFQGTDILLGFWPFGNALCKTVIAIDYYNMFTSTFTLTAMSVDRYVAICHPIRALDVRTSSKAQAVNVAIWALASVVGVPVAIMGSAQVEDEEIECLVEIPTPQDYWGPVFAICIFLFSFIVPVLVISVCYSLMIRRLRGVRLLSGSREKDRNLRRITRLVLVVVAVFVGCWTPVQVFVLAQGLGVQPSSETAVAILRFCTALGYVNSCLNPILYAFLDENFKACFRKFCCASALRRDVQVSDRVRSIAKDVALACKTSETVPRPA
UniProt Q9Y6W6, 321-464 limits assumed: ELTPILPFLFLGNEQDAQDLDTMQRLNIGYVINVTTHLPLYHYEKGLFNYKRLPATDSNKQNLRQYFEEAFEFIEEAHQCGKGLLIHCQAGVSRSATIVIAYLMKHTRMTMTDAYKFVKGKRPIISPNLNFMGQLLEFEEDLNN
UniProt P04775, whole entry: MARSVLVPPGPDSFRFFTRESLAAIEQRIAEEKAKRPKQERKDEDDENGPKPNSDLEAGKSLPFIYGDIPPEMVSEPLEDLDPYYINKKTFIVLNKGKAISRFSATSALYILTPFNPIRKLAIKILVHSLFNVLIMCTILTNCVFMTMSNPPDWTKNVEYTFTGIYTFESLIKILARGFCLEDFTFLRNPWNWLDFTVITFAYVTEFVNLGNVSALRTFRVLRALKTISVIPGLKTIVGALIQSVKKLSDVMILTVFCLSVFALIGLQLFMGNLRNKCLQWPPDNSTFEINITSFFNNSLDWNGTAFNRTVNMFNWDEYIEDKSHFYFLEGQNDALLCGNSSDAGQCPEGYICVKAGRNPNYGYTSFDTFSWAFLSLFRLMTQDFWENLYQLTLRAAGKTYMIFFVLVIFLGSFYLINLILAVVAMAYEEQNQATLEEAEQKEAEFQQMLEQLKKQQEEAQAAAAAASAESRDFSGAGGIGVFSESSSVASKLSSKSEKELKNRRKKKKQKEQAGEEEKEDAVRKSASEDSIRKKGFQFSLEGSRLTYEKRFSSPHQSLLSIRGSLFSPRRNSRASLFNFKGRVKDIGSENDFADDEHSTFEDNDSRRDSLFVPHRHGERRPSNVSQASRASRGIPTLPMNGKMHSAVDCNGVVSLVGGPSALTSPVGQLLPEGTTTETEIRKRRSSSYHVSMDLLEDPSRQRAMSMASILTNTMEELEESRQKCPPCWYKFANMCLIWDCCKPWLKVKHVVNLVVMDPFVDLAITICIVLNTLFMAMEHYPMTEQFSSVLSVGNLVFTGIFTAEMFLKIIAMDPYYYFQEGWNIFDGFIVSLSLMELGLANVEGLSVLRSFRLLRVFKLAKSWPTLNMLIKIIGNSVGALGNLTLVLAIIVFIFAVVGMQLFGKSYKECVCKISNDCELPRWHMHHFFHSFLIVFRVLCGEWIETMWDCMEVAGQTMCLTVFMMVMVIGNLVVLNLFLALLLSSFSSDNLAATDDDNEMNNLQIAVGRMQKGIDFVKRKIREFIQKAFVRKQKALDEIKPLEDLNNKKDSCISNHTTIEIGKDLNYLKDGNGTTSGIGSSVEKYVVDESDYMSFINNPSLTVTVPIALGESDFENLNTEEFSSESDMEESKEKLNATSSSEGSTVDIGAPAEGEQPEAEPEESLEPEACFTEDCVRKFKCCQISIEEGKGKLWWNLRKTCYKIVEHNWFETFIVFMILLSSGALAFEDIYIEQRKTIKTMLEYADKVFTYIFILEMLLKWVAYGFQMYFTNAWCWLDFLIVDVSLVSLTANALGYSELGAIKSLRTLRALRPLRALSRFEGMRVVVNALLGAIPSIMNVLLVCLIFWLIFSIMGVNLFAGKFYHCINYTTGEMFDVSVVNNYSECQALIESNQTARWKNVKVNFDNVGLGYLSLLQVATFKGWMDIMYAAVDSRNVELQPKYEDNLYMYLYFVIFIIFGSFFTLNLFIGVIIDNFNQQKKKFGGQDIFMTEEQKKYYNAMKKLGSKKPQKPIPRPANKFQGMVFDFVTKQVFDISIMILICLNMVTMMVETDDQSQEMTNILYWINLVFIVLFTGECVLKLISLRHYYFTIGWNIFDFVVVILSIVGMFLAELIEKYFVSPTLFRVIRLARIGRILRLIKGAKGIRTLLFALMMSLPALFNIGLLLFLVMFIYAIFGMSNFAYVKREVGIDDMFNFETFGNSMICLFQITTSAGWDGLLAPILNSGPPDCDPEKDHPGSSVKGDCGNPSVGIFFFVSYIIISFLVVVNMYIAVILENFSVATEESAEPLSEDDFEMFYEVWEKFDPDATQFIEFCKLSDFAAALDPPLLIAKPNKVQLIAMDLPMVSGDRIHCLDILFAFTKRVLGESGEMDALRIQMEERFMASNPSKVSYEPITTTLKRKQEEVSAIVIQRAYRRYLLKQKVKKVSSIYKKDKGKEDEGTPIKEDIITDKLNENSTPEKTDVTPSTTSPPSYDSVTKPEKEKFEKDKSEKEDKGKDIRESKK
UniProt P26045, 646-901 limits assumed: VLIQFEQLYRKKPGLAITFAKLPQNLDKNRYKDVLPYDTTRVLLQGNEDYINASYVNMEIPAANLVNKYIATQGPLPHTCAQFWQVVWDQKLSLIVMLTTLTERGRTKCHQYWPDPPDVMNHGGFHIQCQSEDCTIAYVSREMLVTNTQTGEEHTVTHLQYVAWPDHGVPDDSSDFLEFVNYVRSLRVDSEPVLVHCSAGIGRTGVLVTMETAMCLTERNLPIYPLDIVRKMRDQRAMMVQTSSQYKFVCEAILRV
UniProt Q8I719, whole entry: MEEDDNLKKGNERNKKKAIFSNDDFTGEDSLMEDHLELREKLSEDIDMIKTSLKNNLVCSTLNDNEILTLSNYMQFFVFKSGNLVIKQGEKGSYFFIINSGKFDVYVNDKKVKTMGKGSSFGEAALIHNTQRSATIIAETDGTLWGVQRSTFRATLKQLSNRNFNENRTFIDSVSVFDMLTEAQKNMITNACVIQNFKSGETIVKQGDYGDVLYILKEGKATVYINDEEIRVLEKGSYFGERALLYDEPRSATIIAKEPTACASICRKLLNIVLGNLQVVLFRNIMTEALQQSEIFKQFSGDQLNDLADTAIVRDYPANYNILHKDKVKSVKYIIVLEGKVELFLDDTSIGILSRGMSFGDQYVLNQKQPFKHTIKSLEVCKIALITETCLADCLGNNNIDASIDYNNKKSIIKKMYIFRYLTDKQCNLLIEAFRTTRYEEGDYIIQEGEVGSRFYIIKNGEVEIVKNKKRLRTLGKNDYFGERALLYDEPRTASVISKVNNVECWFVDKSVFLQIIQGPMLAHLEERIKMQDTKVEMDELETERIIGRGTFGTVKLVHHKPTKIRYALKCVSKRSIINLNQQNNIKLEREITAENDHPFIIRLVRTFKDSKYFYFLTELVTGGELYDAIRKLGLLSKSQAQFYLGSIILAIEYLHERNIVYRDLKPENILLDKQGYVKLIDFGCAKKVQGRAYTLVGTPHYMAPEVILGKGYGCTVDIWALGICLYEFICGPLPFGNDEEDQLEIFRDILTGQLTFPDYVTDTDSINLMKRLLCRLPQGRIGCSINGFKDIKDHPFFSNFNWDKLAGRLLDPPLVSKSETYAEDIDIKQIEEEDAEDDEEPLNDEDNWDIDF
UniProt Q8WSF8, 18-236 limits assumed: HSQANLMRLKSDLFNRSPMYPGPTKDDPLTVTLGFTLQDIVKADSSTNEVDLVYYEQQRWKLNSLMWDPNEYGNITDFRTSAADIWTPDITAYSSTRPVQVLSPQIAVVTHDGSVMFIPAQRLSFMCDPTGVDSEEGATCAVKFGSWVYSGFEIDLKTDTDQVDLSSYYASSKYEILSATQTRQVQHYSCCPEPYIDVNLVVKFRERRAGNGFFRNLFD
UniProt O42275, whole entry, looked up: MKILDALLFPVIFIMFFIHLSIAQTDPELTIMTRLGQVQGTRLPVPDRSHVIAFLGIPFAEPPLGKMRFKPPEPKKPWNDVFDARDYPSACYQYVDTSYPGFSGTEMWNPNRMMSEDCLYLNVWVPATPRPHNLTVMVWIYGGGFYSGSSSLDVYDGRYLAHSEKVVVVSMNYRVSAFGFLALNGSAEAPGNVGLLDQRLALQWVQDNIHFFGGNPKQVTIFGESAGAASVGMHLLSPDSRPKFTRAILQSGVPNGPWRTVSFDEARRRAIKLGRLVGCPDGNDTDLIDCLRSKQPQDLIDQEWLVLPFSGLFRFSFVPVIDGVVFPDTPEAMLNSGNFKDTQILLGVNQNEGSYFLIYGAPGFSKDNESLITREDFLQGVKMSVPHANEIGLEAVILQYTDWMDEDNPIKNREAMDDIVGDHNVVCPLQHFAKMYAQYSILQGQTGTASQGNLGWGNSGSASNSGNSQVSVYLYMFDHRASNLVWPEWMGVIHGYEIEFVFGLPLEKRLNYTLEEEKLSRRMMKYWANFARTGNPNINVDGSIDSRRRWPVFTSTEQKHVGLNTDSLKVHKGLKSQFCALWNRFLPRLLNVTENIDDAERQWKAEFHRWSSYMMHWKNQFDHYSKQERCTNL
UniProt P08510, 1-655 with tags or gaps DEL6-46: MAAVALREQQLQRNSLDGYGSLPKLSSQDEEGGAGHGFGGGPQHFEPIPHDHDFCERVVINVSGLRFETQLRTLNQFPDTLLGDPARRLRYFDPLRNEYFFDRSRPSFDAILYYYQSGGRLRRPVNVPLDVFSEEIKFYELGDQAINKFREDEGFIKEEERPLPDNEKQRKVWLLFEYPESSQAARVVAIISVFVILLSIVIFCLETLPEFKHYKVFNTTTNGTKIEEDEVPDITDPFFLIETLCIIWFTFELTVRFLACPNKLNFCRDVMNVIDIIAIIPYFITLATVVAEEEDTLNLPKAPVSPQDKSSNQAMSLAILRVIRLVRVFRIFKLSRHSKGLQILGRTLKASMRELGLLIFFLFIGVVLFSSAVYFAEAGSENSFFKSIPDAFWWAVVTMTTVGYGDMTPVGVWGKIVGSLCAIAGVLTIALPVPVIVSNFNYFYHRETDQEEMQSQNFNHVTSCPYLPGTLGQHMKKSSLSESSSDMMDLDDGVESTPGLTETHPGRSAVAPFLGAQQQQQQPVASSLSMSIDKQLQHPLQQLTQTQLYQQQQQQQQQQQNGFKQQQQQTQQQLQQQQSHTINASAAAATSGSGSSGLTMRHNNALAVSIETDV
UniProt Q13976, whole entry: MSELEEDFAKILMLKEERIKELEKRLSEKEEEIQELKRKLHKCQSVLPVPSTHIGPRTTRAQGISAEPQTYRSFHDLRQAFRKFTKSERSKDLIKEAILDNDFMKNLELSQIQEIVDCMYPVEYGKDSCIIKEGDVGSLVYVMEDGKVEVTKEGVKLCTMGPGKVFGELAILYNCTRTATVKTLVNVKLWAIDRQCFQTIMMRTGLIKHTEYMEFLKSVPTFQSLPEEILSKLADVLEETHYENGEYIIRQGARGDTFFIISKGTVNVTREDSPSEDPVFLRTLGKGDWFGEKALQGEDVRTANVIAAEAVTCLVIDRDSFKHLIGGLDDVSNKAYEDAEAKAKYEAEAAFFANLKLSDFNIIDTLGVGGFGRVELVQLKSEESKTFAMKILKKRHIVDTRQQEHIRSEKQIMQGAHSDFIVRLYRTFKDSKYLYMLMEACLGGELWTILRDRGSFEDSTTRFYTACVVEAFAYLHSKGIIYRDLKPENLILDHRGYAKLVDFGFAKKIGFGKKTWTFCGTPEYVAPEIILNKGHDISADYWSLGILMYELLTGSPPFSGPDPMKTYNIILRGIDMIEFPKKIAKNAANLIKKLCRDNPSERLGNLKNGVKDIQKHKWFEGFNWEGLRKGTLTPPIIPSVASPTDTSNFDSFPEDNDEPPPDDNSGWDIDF
UniProt P32121, whole entry partner: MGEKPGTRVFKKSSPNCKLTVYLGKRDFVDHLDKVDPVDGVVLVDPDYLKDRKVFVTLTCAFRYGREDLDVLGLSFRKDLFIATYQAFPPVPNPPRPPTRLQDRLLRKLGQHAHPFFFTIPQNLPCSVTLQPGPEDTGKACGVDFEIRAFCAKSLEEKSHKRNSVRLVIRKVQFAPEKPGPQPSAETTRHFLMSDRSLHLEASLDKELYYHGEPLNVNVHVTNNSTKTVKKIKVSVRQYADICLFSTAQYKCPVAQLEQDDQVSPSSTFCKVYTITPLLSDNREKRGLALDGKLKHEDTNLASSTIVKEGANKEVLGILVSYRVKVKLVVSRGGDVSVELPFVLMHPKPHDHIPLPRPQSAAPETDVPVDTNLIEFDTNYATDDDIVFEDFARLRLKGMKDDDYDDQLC

CNC(=O)CC1C(=O)N(C2CCN([C@H]3CC[C@@H](C(C)C)CC3)CC2)c2ccccc21 (stereo partly shown)
Emax (OPRL1; G protein activation, GTPγS binding; CHO membranes; unit not given; baseline: basal binding): 5.37 ± 0.68

CC[C@H](C)[C@H](NC(=O)[C@H](C)NC(=O)[C@H](CCC(=O)O)NC(=O)[C@H](CCC(=O)O)NC(=O)[C@H](CC(C)C)NC(=O)[C@H](CCCCN)NC(=O)[C@H](CCCCN)NC(=O)[C@H](CCSC)NC(=O)[C@H](CCC(=O)O)NC(=O)[C@H](Cc1ccc(O)cc1)NC(=O)[C@H](CCC(=O)O)NC(=O)[C@H](CC(C)C)NC(=O)[C@H](CC(=O)O)NC(=O)[C@H](CC(C)C)NC(=O)[C@H](Cc1ccccc1)NC(=O)[C@H](Cc1ccccc1)NC(=O)[C@@H](NC(=O)[C@H](CC(N)=O)NC(=O)[C@@H](NC(=O)[C@H](CCC(N)=O)NC(=O)[C@H](CC(=O)O)NC(=O)[C@H](CC(C)C)NC(=O)[C@@H](N)CO)[C@@H](C)CC)C(C)C)C(=O)N[C@@H](CCCCN)C(=O)N[C@@H](CCCCN)C(=O)N[C@@H](CC(C)C)C(=O)N[C@@H](CCC(=O)O)C(=O)N[C@@H](CCC(=O)O)C(=O)N[C@@H](C)C(=O)N[C@@H](Cc1ccc(O)cc1)C(=O)N[C@H](C(=O)N[C@@H](CC(=O)O)C(=O)N[C@@H](CC(C)C)C(=O)N[C@@H](CCCCN)C(=O)N[C@@H](CCC(=O)O)C(=O)N[C@@H](CC(C)C)C(=O)O)[C@@H](C)CC
IC50 (SARS-CoV-2 XBB.1.5 pseudovirus; pseudovirus infection, inhibitor, luciferase; Caco-2; 24 h, dual mutations): 2050 nM

CC(=O)N[C@@H](Cc1c[nH]cn1)C(=O)N[C@H](C(=O)NCC(=O)N[C@@H](Cc1ccccc1)C(=O)N[C@@H](CC(C)C)C(=O)N[C@H](C(=O)N[C@@H](CCC(=O)O)C(=O)N[C@@H](Cc1cc(=O)oc2cc(OP(=O)(O)O)ccc12)C(=O)N[C@H](C(=O)N[C@@H](C)C(=O)N[C@H](C(=O)N[C@@H](CCCNC(=N)N)C(=O)N[C@@H](Cc1c[nH]c2ccccc12)C(N)=O)[C@@H](C)O)C(C)C)[C@@H](C)O)[C@@H](C)O
kcat/Km (Dual specificity protein phosphatase 10; substrate; pH 6, ERK1/2 activation-loop peptide): 10600 M⁻¹ s⁻¹

CN1C(=O)CCc2cc(C(=O)NCC=CS(C)(=O)=O)ccc21
kinact (Polyprotein P1234, nsP2 protease (Chikungunya virus, UniProt Q5XXP4); time-dependent inhibition): 0.0024 ± 0.0003 s⁻¹

CC(=O)N[C@@H](Cc1c[nH]cn1)C(=O)N[C@@H](CC(=O)O)C(=O)NCC(=O)N[C@@H](CC(C)C)C(=O)N[C@@H](Cc1ccc(OP(=O)(O)O)cc1)C(=O)N[C@@H](CCC(N)=O)C(=O)NCC(=O)N[C@@H](CC(C)C)C(=O)N[C@@H](CO)C(=O)N[C@H](C(=O)N[C@@H](C)C(=O)N[C@H](C(=O)N[C@@H](CCCCN)C(=O)N[C@@H](CC(=O)O)C(=O)N[C@H](C(=O)N[C@@H](Cc1cc(=O)oc2cc(OP(=O)(O)O)ccc12)C(=O)N[C@@H](CC(=O)O)C(=O)N[C@@H](C)C(=O)N[C@@H](CC(C)C)C(=O)N[C@@H](Cc1c[nH]cn1)C(N)=O)[C@@H](C)O)[C@@H](C)O)[C@@H](C)O
kcat (Tyrosine-protein phosphatase non-receptor type 3 (PTPN3, Homo sapiens, UniProt P26045); substrate; pH 6, TCR zeta-chain ITAM peptide): 0.69 s⁻¹

CCCN(C)Cc1onc(-c2cccc(Cl)c2)c1-c1ccnc(N[C@@H]2CCN(C(=O)c3ccn(C)n3)C2)n1
Ki (cGMP-dependent protein kinase (PKG, Plasmodium falciparum, UniProt Q8I719); kinase activity, ATP-competitive inhibitor, IMAP kinetics): 29 ± 10 nM

O=C(NCc1ccc(F)cc1)C1C(=O)N(O)C(=O)c2cc(C(F)(F)F)ccc21 (stereo not shown)
inhibition (Nucleoprotein, exonuclease domain (N, Lymphocytic choriomeningitis virus, UniProt P09992); exonuclease activity, inhibitor; 20 µM, 30 min): 73%

CC(C)[C@H]1CC[C@@H](N2CCC3(CC2)C(=O)NCN3c2ccccc2)CC1
intrinsic activity (OPRL1; β-arrestin 2 recruitment, BRET; HEK293; concentration not given, unit not given; baseline: compound Emax over N/OFQ Emax): 0.43

CC[C@H](C)[C@H](NC(=O)[C@H](CC(C)C)NC(=O)[C@H](Cc1ccc(OP(=O)(O)O)cc1)NC(=O)[C@H](CCC(=O)O)NC(=O)[C@H](CC(=O)O)NC(=O)[C@H](C)NC(=O)[C@H](CC(=O)O)NC(=O)[C@@H](NC(=O)[C@H](CC(C)C)NC(=O)CCCC[C@@H]1SC[C@@H]2NC(=O)N[C@@H]21)C(C)C)C(=O)N1CCC[C@H]1C(=O)N[C@@H](CCC(N)=O)C(=O)N[C@@H](CCC(N)=O)C(=O)NCC(=O)O
ΔG (Secreted effector protein C403A/D356A; surface plasmon resonance; immobilized protein): -5.28 kcal/mol

C=CC1=C[C@@H]2[C@@H]3O[C@]4(C[C@H]5CCC[C@@]6(CC[C@@]7(O[C@@H](CC[C@@]7(C)O)CC(=C)CCCC7=NC[C@H](C)[C@@H](C)C[C@@]72CC1)O6)O5)C[C@@H](C)[C@@H](O)[C@H]3O4
selectivity ratio (Soluble acetylcholine receptor (Aplysia californica, UniProt Q8WSF8); baseline: L-AChBP Kd over Soluble acetylcholine receptor Kd): ~400 fold and 420 fold

C[C@@H]1NC(=O)[C@H](Cc2c[nH]c3ccccc23)NC(=O)[C@H](CCCCN)NC(=O)COCCNC(=O)[C@@H]2CSSC[C@@H](C(N)=O)NC(=O)[C@H](CSSC[C@H](N)C(=O)N[C@@H](CC(N)=O)C(=O)N2)NC(=O)[C@H](CCCNC(=N)N)NC(=O)[C@H](CO)NC(=O)[C@H](Cc2c[nH]cn2)NC(=O)[C@H](CC(=O)O)NC(=O)[C@H](CCCNC(=N)N)NC1=O
block (Scn2a; sodium current, blocker, two-electrode voltage clamp; Xenopus oocytes; 1 µM): 93 ± 1%

N[C@@H](Cc1ccc(OP(=O)(O)O)cc1)C(=O)O
kon (Secreted effector protein C403A/D356A; surface plasmon resonance; immobilized protein): 0.399 M⁻¹ s⁻¹

CN(C)Cc1ccc(OC(=O)N(C)C)c(Cl)c1
Vmax (Acetylcholinesterase (ache, Electrophorus electricus, UniProt O42275); enzyme activity, inhibitor, Ellman; 35.4 µM, with: acetylthiocholine iodide): 0.039 absorbance units/min

CC[C@H](C)[C@H](NC(=O)[C@H](C)NC(=O)[C@H](CCC(=O)O)NC(=O)[C@H](CCC(=O)O)NC(=O)[C@H](CC(C)C)NC(=O)[C@H](CCCCN)NC(=O)[C@H](CCCCN)NC(=O)[C@H](CCSC)NC(=O)[C@H](CCC(=O)O)NC(=O)[C@H](Cc1ccc(O)cc1)NC(=O)[C@H](CCC(=O)O)NC(=O)[C@H](CC(C)C)NC(=O)[C@H](CC(=O)O)NC(=O)[C@H](CC(C)C)NC(=O)[C@H](Cc1ccccc1)NC(=O)[C@H](Cc1ccc(O)cc1)NC(=O)[C@@H](NC(=O)[C@H](CC(N)=O)NC(=O)[C@@H](NC(=O)[C@H](CCC(N)=O)NC(=O)[C@H](CC(=O)O)NC(=O)[C@H](CC(C)C)NC(=O)[C@@H](N)CO)[C@@H](C)CC)C(C)C)C(=O)N[C@@H](CCCCN)C(=O)N[C@@H](CCCCN)C(=O)N[C@@H](CC(C)C)C(=O)N[C@@H](CCC(=O)O)C(=O)N[C@@H](CCC(=O)O)C(=O)N[C@@H](CO)C(=O)N[C@@H](Cc1ccc(O)cc1)C(=O)N[C@H](C(=O)N[C@@H](CC(=O)O)C(=O)N[C@@H](CC(C)C)C(=O)N[C@@H](CCCCN)C(=O)N[C@@H](CCC(=O)O)C(=O)N[C@@H](CC(C)C)C(=O)O)[C@@H](C)CC
IC50 (SARS-CoV-2 Gamma pseudovirus; pseudovirus infection, inhibitor, luciferase; Caco-2; 24 h): 468 nM

O=C1Cc2ccccc2N1C1CCN([C@@H]2CC[C@H]3CCCc4cccc2c43)CC1
Emax (OPRL1; G protein activation, GTPγS binding; CHO membranes; unit not given; baseline: basal binding): 4.95 ± 0.77

O=C(O)C(O)=CC(=O)C1(Cc2ccc(Cl)cc2)CCN(Cc2ccc3ccccc3c2)CC1
inhibition (Replicase polyprotein 1ab, nsp14 with nsp10 (rep, Severe acute respiratory syndrome coronavirus 2, UniProt P0DTD1); exonuclease activity, inhibitor; 20 µM): 5%

CC[C@H](C)[C@@H]1NC(=O)[C@H](CCCNC(=N)N)NC(=O)[C@@H](N)CSSC[C@@H]2NC(=O)[C@@H]3CSSC[C@@H](C(=O)N[C@H](C(=O)O)C(C)C)NC(=O)[C@H](CCCCN)NC(=O)[C@H](CC(N)=O)NC(=O)[C@H](Cc4ccccc4)NC(=O)[C@H](CCCNC(=N)N)NC(=O)[C@H](CC(N)=O)NC(=O)[C@H](CSSC[C@H](NC(=O)[C@H](CCCCN)NC(=O)[C@H](CCC(N)=O)NC(=O)[C@H](CC(N)=O)NC(=O)[C@@H]4C[C@@H](O)CN4C1=O)C(=O)N[C@@H](Cc1ccccc1)C(=O)N[C@@H](CCC(N)=O)C(=O)N[C@@H](Cc1c[nH]cn1)C(=O)N[C@@H](CC(C)C)C(=O)N[C@@H](CC(=O)O)C(=O)N[C@@H](CC(=O)O)C(=O)N3)NC(=O)[C@H](CCCCN)NC(=O)[C@H](CCCNC(=N)N)NC(=O)[C@H](CO)NC2=O
koff (Sh (Drosophila melanogaster, UniProt P08510, del6-46); potassium current, outside-out patch clamp; 500 nM, pulse application, zero voltage, internal K 100, with: 1 mM TEA): 15 ± 1 s⁻¹

Cc1ccc(S(=O)(=O)Nc2cccc(C(=O)NC3CCN(c4ncnc5[nH]cnc45)CC3)c2)cc1
inhibition (Replicase polyprotein 1ab, nsp14 ExoN with nsp10 (rep, Severe acute respiratory syndrome coronavirus 2, UniProt P0DTD1); ExoN activity; 200 µM): 17.6%

CC(=O)N[C@@H](Cc1c[nH]cn1)C(=O)N[C@H](C(=O)NCC(=O)N[C@@H](Cc1ccccc1)C(=O)N[C@@H](CC(C)C)C(=O)N[C@H](C(=O)N[C@@H](CCC(=O)O)C(=O)N[C@@H](Cc1cc(=O)oc2cc(OP(=O)(O)O)ccc12)C(=O)N[C@H](C(=O)N[C@@H](C)C(=O)N[C@H](C(=O)N[C@@H](CCCNC(=N)N)C(=O)N[C@@H](Cc1c[nH]c2ccccc12)C(N)=O)[C@@H](C)O)C(C)C)[C@@H](C)OP(=O)(O)O)[C@@H](C)O
kcat/Km (Dual specificity protein phosphatase 10; substrate; pH 6, ERK1/2 activation-loop peptide): 9190 M⁻¹ s⁻¹

O=C(/C=C/c1ccc(O)cc1)/C(C(=O)Nc1ccccc1)=C(O)/C=C/c1ccc(O)cc1
inhibition (Lethal factor (Bacillus anthracis, UniProt P15917); enzyme activity; 20 µM, with: substrate 3 µM): 26 to 28%

CCCCN1CC(=O)N[C@@H](Cc2c[nH]c3ccccc23)C(=O)N[C@H]2CSSC[C@H](N)C(=O)N[C@H]3CSSC[C@H](NC(=O)[C@H](CCCNC(=N)N)NC(=O)[C@H](CO)NC(=O)[C@H](Cc4c[nH]cn4)NC(=O)[C@H](CC(=O)O)NC(=O)[C@H](CCCNC(=N)N)NC2=O)C(=O)N[C@H](C(N)=O)CSSC[C@H](NC(=O)[C@H](CC(N)=O)NC3=O)C(=O)N[C@@H](CO)C(=O)N[C@@H](CO)C1=O
kobs (Scn2a; sodium current, blocker, two-electrode voltage clamp; Xenopus oocytes; 10 µM): 0.36 ± 0.07 min⁻¹

CCOP(=O)(OCC)ON1C(=O)c2cccc3cccc(c23)C1=O
IC50 (carboxylesterase (rat); enzyme activity, inhibitor; rat, postnatal day 70, rat liver homogenate; with: p-nitrophenyl valerate): 5.7 nM

NC[C@@H](CC[C@H](N)C(=O)O)C[C@H]1O[C@@H](n2cnc3c(N)ncnc32)[C@H](O)[C@@H]1O
Hill slope (Replicase polyprotein 1ab, nsp16 with nsp10 (rep, Middle East respiratory syndrome-related coronavirus, UniProt K9N7C7); methyltransferase activity, inhibitor, radiometric nsp10-nsp16): -1.1

CS(=O)(=O)Cc1onc(-c2cccc(Cl)c2)c1-c1ccnc(N[C@@H]2CCN(C(=O)c3nccs3)C2)n1
inhibition (cGMP-dependent protein kinase 1 (PRKG1, Homo sapiens, UniProt Q13976); kinase activity, inhibitor, IMAP; 10 µM, with: FAM-IP3R peptide): 7.4 ± 0.6%

CC(C(=O)O)c1nn(C)c2nc(N)[nH]c(=O)c2c1=O (stereo not shown)
tracer binding (Dihydropteroate synthase (Bacillus anthracis, UniProt Q81VW8); competitor, fluorescence tracer displacement; concentration not given): inhibited

A few entries again:
CCCCN1CC(=O)N[C@@H](Cc2c[nH]c3ccccc23)C(=O)N[C@H]2CSSC[C@H](N)C(=O)N[C@H]3CSSC[C@H](NC(=O)[C@H](CCCNC(=N)N)NC(=O)[C@H](CO)NC(=O)[C@H](Cc4c[nH]cn4)NC(=O)[C@H](CC(=O)O)NC(=O)[C@H](CCCNC(=N)N)NC2=O)C(=O)N[C@H](C(N)=O)CSSC[C@H](NC(=O)[C@H](CC(N)=O)NC3=O)C(=O)N[C@@H](CO)C(=O)N[C@@H](CO)C1=O
kobs (Scn2a; sodium current, blocker, two-electrode voltage clamp; Xenopus oocytes; 10 µM): 0.36 ± 0.07 min⁻¹

CCOP(=O)(OCC)ON1C(=O)c2cccc3cccc(c23)C1=O
IC50 (carboxylesterase (rat); enzyme activity, inhibitor; rat, postnatal day 70, rat liver homogenate; with: p-nitrophenyl valerate): 5.7 nM

NC[C@@H](CC[C@H](N)C(=O)O)C[C@H]1O[C@@H](n2cnc3c(N)ncnc32)[C@H](O)[C@@H]1O
Hill slope (Replicase polyprotein 1ab, nsp16 with nsp10 (rep, Middle East respiratory syndrome-related coronavirus, UniProt K9N7C7); methyltransferase activity, inhibitor, radiometric nsp10-nsp16): -1.1
